Experimental data of several laboratories.
Lines come from different studies, so protocols differ. Values joined by “and” are separate records of one study, mostly repeats; a detail may differ.
Target: Mitogen-activated protein kinase kinase kinase 5 (MAP3K5, Homo sapiens, UniProt Q99683)
Residues used in one study (Q99683 1-1374): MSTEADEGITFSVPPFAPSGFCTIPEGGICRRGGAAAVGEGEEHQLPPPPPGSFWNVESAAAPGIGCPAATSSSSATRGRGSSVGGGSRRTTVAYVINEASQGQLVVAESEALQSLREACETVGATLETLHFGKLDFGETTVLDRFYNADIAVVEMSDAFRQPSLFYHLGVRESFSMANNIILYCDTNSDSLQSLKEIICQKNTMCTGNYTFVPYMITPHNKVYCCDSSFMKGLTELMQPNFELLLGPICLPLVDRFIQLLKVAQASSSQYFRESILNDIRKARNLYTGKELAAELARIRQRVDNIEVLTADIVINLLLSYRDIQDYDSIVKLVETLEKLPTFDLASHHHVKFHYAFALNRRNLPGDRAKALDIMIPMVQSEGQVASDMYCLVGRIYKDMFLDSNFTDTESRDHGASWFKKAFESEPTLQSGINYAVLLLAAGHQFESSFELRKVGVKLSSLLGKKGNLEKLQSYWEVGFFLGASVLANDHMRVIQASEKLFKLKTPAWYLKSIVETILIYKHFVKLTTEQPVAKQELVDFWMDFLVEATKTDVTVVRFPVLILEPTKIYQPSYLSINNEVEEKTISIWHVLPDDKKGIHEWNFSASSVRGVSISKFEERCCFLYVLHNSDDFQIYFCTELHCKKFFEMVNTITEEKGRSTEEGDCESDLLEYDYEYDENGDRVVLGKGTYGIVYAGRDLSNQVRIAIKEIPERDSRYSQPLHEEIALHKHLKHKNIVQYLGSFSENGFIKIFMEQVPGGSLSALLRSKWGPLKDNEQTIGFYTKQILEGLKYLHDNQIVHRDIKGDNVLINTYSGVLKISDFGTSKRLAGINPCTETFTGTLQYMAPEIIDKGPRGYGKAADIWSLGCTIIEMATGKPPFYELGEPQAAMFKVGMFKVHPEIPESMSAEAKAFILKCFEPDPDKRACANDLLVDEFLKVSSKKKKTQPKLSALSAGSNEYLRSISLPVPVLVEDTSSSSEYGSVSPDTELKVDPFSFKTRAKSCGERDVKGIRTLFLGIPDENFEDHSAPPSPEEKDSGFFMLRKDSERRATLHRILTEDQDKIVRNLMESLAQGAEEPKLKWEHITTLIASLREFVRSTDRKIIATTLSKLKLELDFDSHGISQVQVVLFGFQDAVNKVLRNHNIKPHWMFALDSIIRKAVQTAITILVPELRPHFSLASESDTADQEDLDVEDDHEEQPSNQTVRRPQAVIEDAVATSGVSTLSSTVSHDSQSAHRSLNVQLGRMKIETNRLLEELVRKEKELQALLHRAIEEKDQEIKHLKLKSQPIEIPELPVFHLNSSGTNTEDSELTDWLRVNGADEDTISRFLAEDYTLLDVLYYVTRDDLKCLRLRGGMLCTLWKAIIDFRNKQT

SMILES | assay | test system | conditions | scale | quantity | value
CN1CC[C@@H](COc2cnc(C#N)cc2-c2ccn3nc(NC(=O)C4CC4)cc3c2)C1 | enzyme activity, inhibitor | – | 1 µM | – | inhibition | 7%
COc1ccc(NC(=O)Nc2ccc3c(c2)C(=O)N(C(C)CO)CC(C)C(CN(C)Cc2ccc4c(c2)OCO4)O3)cc1 (centres unmarked) | kinase activity, KinaseProfiler | – | 0.03 µM, species human | relative to: control | remaining activity | 109%
COc1cc(Nc2nc(C)cc(-c3cnn4nc(OC)ccc34)n2)cc(C(F)(F)F)c1 | inhibitor | – | 1 µM, ASK1 | relative to: control | remaining activity | 80%
C=CC(=O)Nc1cc(-c2nn(C3CCN(CCNC(=O)[C@H](C)CCC45CC6CC(CC(C6)C4)C5)CC3)c3ncnc(N)c23)ccc1Oc1ccccc1 | inhibitor, KiNativ profiling | biochemical | 2 µM | – | inhibition | 20.6%
O=C=[N][Ru-4]123([n]4c5ccc(O)cc5c5c6c(c7cc(F)c[n+]1c7c54)C(=O)NC6=O)[S+]1CC[S+]2CC[S+]3CC1 (centres unmarked) | enzyme activity | – | 100 nM, human enzyme, together with: 10 µM ATP | relative to: untreated | remaining activity | 104%
C=CC(=O)N1CCc2ccc(-n3c(=O)ccc4cnc5ccc(-c6cnn(C)c6)cc5c43)cc21 | KINOMEscan | – | 1 µM | relative to: DMSO control | remaining binding | 100%
O=C(Nc1ccc(Oc2ncnc3[nH]cc(-c4ccccc4)c23)c(F)c1)c1c2n(n(-c3cc(F)ccc3F)c1=O)CCCC2 | enzyme activity, inhibitor | – | 0.5 µM | – | inhibition | -11%
CCn1cc(C(=O)O)c(=O)c2c(N)c(F)c(NC3CCCCC3)cc21 | kinase activity | – | 0.1 µM, together with: ATP at Km | – | inhibition | 15%
COc1c(OCCCN2CCOCC2)ccc2c1N=C(NC(=O)c1cnc(N)nc1)N1CCN=C21 | kinase activity, inhibitor | – | 1 µM | relative to: untreated control | remaining activity | 99%
Nc1ncc(-c2cc(-c3cnn(CC(F)(F)F)c3)ncc2F)nc1C(=O)NC1CNCC(F)C1 (centres unmarked) | enzyme activity | – | 1 µM | relative to: DMSO control | remaining activity | 87.8%
Cc1cnc2nc1Nc1cccc(c1)COC/C=C/COCc1cc(ccc1OCCN1CCOCC1)N2 | binding, competition with immobilised ligand | – | 0.1 µM | – | remaining binding | 100%
O=C(Cc1ccc(OCc2ccccc2)cc1)NC1(C(=O)O)CCN(C(=O)c2ccc(-c3cccc(Cl)c3)cc2)CC1 | enzyme activity, inhibitor | – | 10 µM | – | activity vs control | 114%
N[C@H]1CC[C@H](Nc2nccc(-c3cccnc3Oc3ccc(NC(=O)NC4CC4)c4ccccc34)n2)CC1 | kinobead competition pulldown | HEK293/HCT116 lysate mixture | 10 µM, 1 h, 4 °C | lower = stronger competition | log2 LFQ intensity | 19.6 and 18.8 and 20 and 19.3
NC(=O)C[C@H]1CCc2sc3ncnc(O[C@H]4CC[C@H](N5CCOCC5)CC4)c3c21 | enzyme activity, inhibitor | – | 10 µM | – | inhibition | 4%

Excerpt of the above:
SMILES | assay | test system | conditions | scale | quantity | value
CN1CC[C@@H](COc2cnc(C#N)cc2-c2ccn3nc(NC(=O)C4CC4)cc3c2)C1 | enzyme activity, inhibitor | – | 1 µM | – | inhibition | 7%
